Measurements of several laboratories.
Compare with care: the assays were run in different laboratories. Several values in a cell are separate wells, animals, samples, runs or records. ± marks the error that the study gave. Values after ≈ are worked out from the molar mass of the structure shown.

CCn1c(=O)c(-c2cc[nH]n2)cc2c(C)nc(N)nc21 — total pathology score (Enterovirus A71; histopathology; EV71-infected suckling mice, liver; 0.25 mg/kg; direction not given): 1
COc1cc(C#CC(=O)c2ccccc2)ccc1O — biofilm formation (Pseudomonas aeruginosa; static biofilm; PA14; 10 µM, 24 h; reference: DMSO): 46%
CC1CCC(C(C)C)C(OC2=C(Cl)C(=O)c3ccccc3C2=O)C1 (stereo not shown) — zone of inhibition (Aspergillus niger; ITCC 7787; 10 µg/mL): 16 mm
CN[C@H](CC(C)C)C(=O)N[C@H]1C(=O)N[C@@H](CC(N)=O)C(=O)N[C@H]2C(=O)N[C@H]3C(=O)N[C@H](C(=O)N[C@H](C(=O)O)c4cc(O)cc(O)c4-c4cc3ccc4O)[C@H](O)c3ccc(c(Cl)c3)Oc3cc2cc(c3O[C@@H]2O[C@H](CO)[C@@H](O)[C@H](O)[C@H]2O[C@H]2C[C@](C)(N)[C@H](O)[C@H](C)O2)Oc2ccc(cc2Cl)[C@H]1O — MIC50 (Streptococcus pneumoniae; penicillin-resistant, 10 isolates; serum 25%): 0.5 µg/mL (≈ 0.345 µM)
C[C@]1(CO)[C@H]2CC[C@@H]3CN(Cc4ccc(F)c(Cl)c4)[C@@H](C4=CCOC4=O)C[C@H]3[C@]2(C)CC[C@H]1O — inhibition (Human coronavirus 229E; cytopathic effect; MRC5; 25 µM, corrected for cytotoxicity): 10%
O=C(NCC1CCOCC1)c1ccc([C@H]2[C@@H](F)[C@@H](F)C[C@@H](F)[C@H]2F)cc1 — hepatic clearance (liver microsome stability; dog liver microsomes; 1 µM): 10 mL/min/kg
CO[C@H]1/C=C/O[C@@]2(C)Oc3c(C)c(O)c4c(c3C2=O)C2=NC3(CCN(CC(C)C)CC3)NC2=C(NC(=O)/C(C)=C\C=C\[C@H](C)[C@H](O)[C@@H](C)[C@@H](O)[C@@H](C)[C@H](OC(C)=O)[C@@H]1C)C4=O — IC90 (Mycobacteroides abscessus; bacterial growth; subsp. massiliense 097 clinical isolate; rough, slow grower): 5.99 µM
NS(=O)(=O)c1ccc(Nc2ncc(-c3ccccc3)o2)cc1 — selectivity (Trypanosoma brucei; unit not given; reference: pEC50 T. brucei minus pTC50 HepG2): > 2.2
C[C@@]12COCO[C@@H]1CC[C@]1(C)[C@@H]2CC[C@@H]2CN(Cc3ccccc3)[C@@H](C3=CCOC3=O)C[C@H]21 — inhibition (Human coronavirus 229E; cytopathic effect; MRC5; 25 µM, corrected for cytotoxicity): 10.7%
CCCCCCCCCC(=O)N[C@@H](Cc1c[nH]c2ccccc12)C(=O)N[C@H](CC(N)=O)C(=O)N[C@@H](CC(=O)O)C(=O)N[C@@H]1C(=O)NCC(=O)N[C@@H](CCCN)C(=O)N[C@@H](CC(=O)O)C(=O)N[C@H](C)C(=O)N[C@@H](CC(=O)O)C(=O)NCC(=O)N[C@H](CO)C(=O)N[C@@H]([C@H](C)CC(=O)O)C(=O)N[C@@H](CC(=O)c2ccccc2N)C(=O)O[C@@H]1C — MIC (Staphylococcus aureus; SH1000; added: sphingomyelin, molar ratio 1): 1 µg/mL
Cc1cc(OC(C)C)ccc1C(=O)C(C)(C)NC(=O)c1sccc1C — EC50 (Sclerotinia sclerotiorum; mycelial growth; PSA medium; 20 °C): 0.01 µg/mL (≈ 0.0278 µM)
COC(=O)[C@@H](NCc1cc2ccccc2nc1OCc1ccccc1)C(C)C — growth (Pseudomonas aeruginosa; 16 µg/mL, added: pentamidine 50 µM; reference: control): 99.3%
O=C(NCc1cc[nH]n1)c1ccc([C@H]2[C@@H](F)[C@@H](F)C[C@@H](F)[C@H]2F)cc1 — hepatic clearance (hepatocyte stability; cryopreserved human hepatocytes; 1 µM): 10 mL/min/kg
O=C(O[C@@H]1O[C@@H]2COC(=O)c3cc(O)c(O)c(O)c3-c3c(cc(O)c(O)c3O)C(=O)O[C@H]([C@H]1O)[C@@H]2O)c1cc(O)c(O)c(O)c1 — MBC/MIC ratio (Streptococcus mutans; broth microdilution): 2
COC(=O)[C@H](Cc1ccc(O)cc1)NCc1cc2ccccc2nc1SC — growth (Pseudomonas aeruginosa; 4 µg/mL, added: pentamidine 100 µM; reference: control): 53.2%
CC1(C)OC[C@@]2(C)[C@H]3CC[C@@H]4CN(Cc5ccc(C(F)(F)F)cc5)[C@@H](C5=CCOC5=O)C[C@H]4[C@]3(C)CC[C@H]2O1 — inhibition (Human coronavirus 229E; cytopathic effect; MRC5; 25 µM, corrected for cytotoxicity): 81.1%
CC(C)Cc1ccc(C(C)C(=O)O)cc1 (stereo not shown) — inhibition (Lactobacillus acidophilus; cell survival; 100 µM, 24 h; reference: DMSO): 73%
CCCCN1C[C@H]2CC[C@@H]3[C@]4(C)COC(C)(C)O[C@@H]4CC[C@@]3(C)[C@@H]2C[C@@H]1C1=CCOC1=O — inhibition (Human coronavirus 229E; cytopathic effect; MRC5; 25 µM, corrected for cytotoxicity): -0.4%
N=C(N)c1ccc(OCc2cc(COc3ccc(C(=N)N)cc3)cc(-c3ccccc3)c2)cc1 — MIC in combination (Escherichia coli; BW25113; concentration not given, lowest-FICI combination, added: novobiocin): 3.13 µg/mL
Cc1cc(N2CCN(c3ccc([N+](=O)[O-])c4cccnc34)CC2)c2ccccc2n1 — maximal activity (Mus musculus; gene silencing, high-content imaging; LDR reporter GFP cells; retest run 2): 30%
Cc1[nH]c2ccccc2c1-c1csc(-c2c[nH]c3ccccc23)n1 — IC50 (Human papillomavirus 16; viral genome amplification; differentiated W12E): ~5 µM
Oc1cc(O)c2c(c1)O[C@H](c1cc(O)c(O)c(O)c1)[C@@H](O)C2 — initial rate of glycolytic pH drop (Streptococcus mutans; MIC, first 15 min, added: glucose 1%): 0.037 pH units/min
COc1cc(N2CCN(C(C)C)CC2)ccc1Nc1nc(Nc2ccc(F)cc2C(N)=O)c2cc[nH]c2n1 — selectivity (Trypanosoma brucei; unit not given; reference: pEC50 T. brucei minus pTC50 HepG2): 1.4
CC(C)C[C@@H](/C=C/S(C)(=O)=O)NC(=O)[C@H](CC(C)C)NC(=O)[C@H](CC(C)C)NC(=O)OCc1ccccc1 — maximal activity (Mus musculus; gene silencing, high-content imaging; LDR reporter GFP cells; retest run 2): 107%
O=c1[nH]c(CCl)nc2scc(-c3ccc(F)cc3)c12 — selectivity index (Trypanosoma brucei brucei; 449 Lister 427 bloodstream form; 24 h; reference: EC50 HEK293 over EC50 T. brucei): 3 ± 0.8
Cc1ccc(Cn2cc(C(=O)N/N=C/c3ccc([N+](=O)[O-])o3)c(=O)c3cc(Cl)ccc32)cc1 — selectivity ratio (Trypanosoma brucei brucei; resazurin viability; Lister 427; reference: CC50 HEK293 over EC50 parasite): 4.5
CN1CCC(n2cnc(-c3ccc(F)cc3)c2-c2ccnc(Nc3ccccc3)n2)CC1 — selectivity (Trypanosoma brucei; unit not given; reference: pEC50 T. brucei minus pTC50 HepG2): 2.1
CC1(C)OC[C@@]2(C)[C@H]3CC[C@@H]4CN(Cc5ccco5)[C@@H](C5=CCOC5=O)C[C@H]4[C@]3(C)CC[C@H]2O1 — inhibition (Human coronavirus 229E; cytopathic effect; MRC5; 25 µM, corrected for cytotoxicity): 20.4%
C=CC[C@@H]1c2ccc(OC)c(OC)c2CN2CCc3cc4c(cc3[C@H]12)OCO4 — relative wound size (Staphylococcus aureus; P2rx7+/+ mice, skin wound infection; dose not given, day 2; reference: day 0): 0.63 and 0.62 and 0.86 and 0.78 and 1.15
Cc1ccc(/C=[N+](\[O-])c2ccc(N(C)C)cc2)c2nsnc12 — maximal activity (Mus musculus; gene silencing, high-content imaging; LDR reporter GFP cells; retest run 2): 41%
[H]/N=C(\N/C(=N/[H])NCCCCCCNC(=N)NC(=N)Nc1ccc(Cl)cc1)Nc1ccc(Cl)cc1 — final pH (Streptococcus mutans; MIC, 120 min, initial pH 7.4): > 5.5
O=C(O[C@H]1CN[C@H](C#Cc2cc3ncnc(Nc4ccc(OCc5cccc(F)c5)c(Cl)c4)c3s2)C1)N1CCOCC1 — selectivity (Trypanosoma brucei; unit not given; reference: pEC50 T. brucei minus pTC50 HepG2): 1.4
Cc1cc(Nc2ccc(S(F)(F)(F)(F)F)cc2)n2nc(C(C)(F)F)nc2n1 — PC50 parasite clearance time mean (Plasmodium falciparum; microscopy; P. falciparum malaria patients; oral, 400 mg): 16.1 h
O=C1CN(c2nc(-c3ccccc3)c3cc(Cl)ccc3n2)c2ccccc2N1 — maximal activity (Mus musculus; gene silencing, high-content imaging; LDR reporter GFP cells; retest run 1): 21%
CCCN1CCC(Oc2cc(Nc3nc(Nc4cccc(F)c4C(N)=O)c4cc[nH]c4n3)c(OC)cc2Cl)CC1 — selectivity (Trypanosoma brucei; unit not given; reference: pEC50 T. brucei minus pTC50 HepG2): 1.2
Cc1nc2[nH]c(=O)n(O)c(=O)c2s1 — growth inhibition (Digitaria adscendens; 750 g/ha, 21 days, post-emergence, glasshouse pot): 0%
CC(C)n1ncc2c(C(=O)NCC3(C)CNC3)cc(C3CC3)nc21 — plaque reduction (Enterovirus A71; viral replication; Tainan/4643/1998; 3000 nM): 100%
C[n+]1cc(NC(=O)c2ccc3ccc4ccc(C(=O)Nc5cc6ccccc6[n+](C)c5)nc4c3n2)cc2ccccc21 — downregulated G4-containing genes (Trypanosoma brucei; RNA-seq; Lister 427 bloodstream form; 2 × EC50, 4 h, ChIP-seq G4 peak overlap): 7 genes
CC(=O)N[C@@H](CSC(=O)[C@]1([C@@H](O)C(C)C)NC(=O)[C@H](C)[C@@H]1O)C(=O)O — Emax (Mus musculus; gene silencing, high-content imaging; LDR reporter GFP cells; 30 h, retest, mean of two runs): 72%
CCCN1CCCC(c2ccc(Nc3nc(Nc4cc(F)ccc4C(N)=O)c4cc[nH]c4n3)c(OC)c2)C1 (stereo not shown) — selectivity (Trypanosoma brucei; unit not given; reference: pEC50 T. brucei minus pTC50 HepG2): 1.7
N=C(N)c1ccc(OCc2cc(Br)cc(COc3ccc(C(=N)N)cc3)c2)cc1 — FICI (Escherichia coli; checkerboard; BW25113; synergy at FICI ≤0.5, unit not given, added: novobiocin; lower = stronger synergy): ≤ 0.078
O=S(=O)(CCOCc1ccc(-c2ccc3ncnc(Nc4ccc(OCc5cccc(F)c5)c(Cl)c4)c3c2)o1)c1ccccc1 — selectivity (Trypanosoma brucei; unit not given; reference: pEC50 T. brucei minus pTC50 HepG2): > 1.8
O[C@H]1[C@H]2c3cc4c(cc3CN3CCC(=C[C@@H]1O)[C@H]23)OCO4 — maximal activity (Mus musculus; gene silencing, high-content imaging; LDR reporter GFP cells; retest run 2): 68%
CC1(C)OC[C@@]2(C)[C@H]3CC[C@@H]4CN(Cc5ccc(Br)cc5)[C@@H](C5=CCOC5=O)C[C@H]4[C@]3(C)CC[C@H]2O1 — inhibition (Human coronavirus 229E; cytopathic effect; MRC5; 25 µM, corrected for cytotoxicity): 61.5%
COc1ccc(Nc2nc3c(S(=O)(=O)c4ccccc4)nnn3c3ccc(Cl)cc23)cc1 — maximal activity (Mus musculus; gene silencing, high-content imaging; LDR reporter GFP cells; retest run 2): 36%
COc1cccc(-n2ncc3c(N/N=C/c4ccc(C(=O)NCCN(C)C)cc4)ncnc32)c1 — selectivity (Trypanosoma brucei; unit not given; reference: pEC50 T. brucei minus pTC50 HepG2): 1.8
CC(C)C[C@@H](C=O)NC(=O)[C@H](CC(C)C)NC(=O)[C@H](CC(C)C)NC(=O)OCc1ccccc1 — Emax (Mus musculus; gene silencing, high-content imaging; LDR reporter GFP cells; 30 h, retest run 2): 130%
O=C1C(Cl)=C(n2ccnc2)C(=O)c2ccccc21 — zone of inhibition (Aspergillus niger; ITCC 7787; 10 µg/mL): 10 mm
COc1cc2c(cc1C(=O)Nc1ccc(C(C)(C)C)cc1)CCCCC2 — EC90 (West Nile virus; viral replication; HEK293): 1 µM

For quick reference, copied from above:
O[C@H]1[C@H]2c3cc4c(cc3CN3CCC(=C[C@@H]1O)[C@H]23)OCO4 — maximal activity (Mus musculus; gene silencing, high-content imaging; LDR reporter GFP cells; retest run 2): 68%
NS(=O)(=O)c1ccc(Nc2ncc(-c3ccccc3)o2)cc1 — selectivity (Trypanosoma brucei; unit not given; reference: pEC50 T. brucei minus pTC50 HepG2): > 2.2
Cc1ccc(Cn2cc(C(=O)N/N=C/c3ccc([N+](=O)[O-])o3)c(=O)c3cc(Cl)ccc32)cc1 — selectivity ratio (Trypanosoma brucei brucei; resazurin viability; Lister 427; reference: CC50 HEK293 over EC50 parasite): 4.5
CC1(C)OC[C@@]2(C)[C@H]3CC[C@@H]4CN(Cc5ccc(Br)cc5)[C@@H](C5=CCOC5=O)C[C@H]4[C@]3(C)CC[C@H]2O1 — inhibition (Human coronavirus 229E; cytopathic effect; MRC5; 25 µM, corrected for cytotoxicity): 61.5%
CN1CCC(n2cnc(-c3ccc(F)cc3)c2-c2ccnc(Nc3ccccc3)n2)CC1 — selectivity (Trypanosoma brucei; unit not given; reference: pEC50 T. brucei minus pTC50 HepG2): 2.1
CC(C)Cc1ccc(C(C)C(=O)O)cc1 (stereo not shown) — inhibition (Lactobacillus acidophilus; cell survival; 100 µM, 24 h; reference: DMSO): 73%
